Published values collected from several papers.
Numbers after ± are the reported error.

| Compound | system | setting | tissue uptake |
| --- | --- | --- | --- |
| CCCC[C@H](NC(=O)CNC(=O)CNC(=O)CN1CCN(CC(=O)O)CCN(CC(=O)O)CCN(CC(=O)O)CC1)C(=O)N[C@H]1CC(=O)NCCCC[C@@H](C(N)=O)NC(=O)[C@H](Cc2c[nH]c3ccccc23)NC(=O)[C@H](CCCNC(=N)N)NC(=O)[C@@H](Cc2ccccc2)NC(=O)[C@H](Cc2c[nH]cn2)NC1=O [copper-64 labelled] | female C57 mouse, B16/F1 melanoma, lung | intravenous, 0.037 MBq, 0.5 h | 3.76 ± 0.54 %ID/g |
| O=C([O-])CN1CCN(CC(=O)[O-])CCN(CC(=O)NCCc2ccc3c(c2)C2C=CCC2C(c2cc4c(cc2Br)OCO4)N3)CCN(CC(=O)[O-])CC1.[111In+3] (centres unmarked) | mouse, Hec50 endometrial tumour, kidneys | 0.5 h post injection | 2.55 ± 0.3 %ID/g |
| CC(C)[C@H](NC(=O)[C@@H]1CCCN1C(=O)[C@H](CCCNC(=N)N)NC(=O)[C@H](CS)NC(=O)[C@H](Cc1c[nH]c2ccccc12)NC(=O)[C@H](CCCNC(=N)N)NC(=O)[C@@H](Cc1ccccc1)NC(=O)[C@H](Cc1c[nH]cn1)NC(=O)[C@H](CCC(=O)O)NC(=O)[C@H](CS)NC(=O)[C@H](CS)NC(=O)[C@@H]1CC(=O)N[C@@H](CCCNC(=N)N)C(=O)NCC(=O)N[C@@H](CC(=O)O)C(=O)N[C@H](Cc2ccc(O)cc2)C(=O)N1)C(N)=O [technetium-99m labelled] | C57 mouse, female, B16/F1 melanoma, blood | intravenous, 0.037 MBq, 0.5 h | 6.1 ± 5.05 %ID/g |
| CCCC[C@H](NC(=O)CNC(=O)CNC(=O)CN1CCN(CC(=O)O)CCN(CC(=O)O)CC1)C(=O)N[C@H]1CC(=O)NCCCC[C@@H](C(N)=O)NC(=O)[C@H](Cc2c[nH]c3ccccc23)NC(=O)[C@H](CCCNC(=N)N)NC(=O)[C@@H](Cc2ccccc2)NC(=O)[C@H](Cc2c[nH]cn2)NC1=O [copper-64 labelled] | female C57 mouse, B16/F1 melanoma, spleen | intravenous, 0.037 MBq, 2 h | 0.25 ± 0.09 %ID/g |
| CC(C)[C@H](NC(=O)[C@@H]1CCCN1C(=O)[C@H](CCCNC(=N)N)NC(=O)[C@H](CS)NC(=O)[C@H](Cc1c[nH]c2ccccc12)NC(=O)[C@H](CCCNC(=N)N)NC(=O)[C@@H](Cc1ccccc1)NC(=O)[C@H](Cc1c[nH]cn1)NC(=O)[C@H](CCC(=O)O)NC(=O)[C@H](CS)NC(=O)[C@H](CS)NC(=O)CNC(=O)[C@@H]1CC(=O)N[C@@H](CCCNC(=N)N)C(=O)NCC(=O)N[C@@H](CC(=O)O)C(=O)N[C@H](Cc2ccc(O)cc2)C(=O)N1)C(N)=O [technetium-99m labelled] | C57 mouse, female, B16/F1 melanoma, skin | intravenous, 0.037 MBq, 24 h | 0.34 ± 0.16 %ID/g |
| CN1C(=O)[C@@H](Cc2ccc(O)c(I)c2)NC(=O)CNC(=O)[C@H](Cc2ccc3ccccc3c2)NC(=O)[C@H](CCCNC(=N)N)NC(=O)[C@H]1CCCNC(=O)c1ccc(CNC(=O)CN2CCN(CC(=O)O)CCN(CC(=O)O)CCN(CC(=O)O)CC2)cc1 [lutetium-177 labelled] | female CB-17 SCID mouse, Daudi xenograft, spleen | intravenous, 6 h, CXCR4 blocking, together with: AMD3100 2 mg/kg coinjected | 0.64 ± 0.55 %ID/g |
| CCCC[C@H](NC(=O)CNC(=O)CNC(=O)CN1CCN(CC(=O)O)CCN(CC(=O)O)CCN(CC(=O)O)CC1)C(=O)N[C@H]1CC(=O)NCCCC[C@@H](C(N)=O)NC(=O)[C@H](Cc2c[nH]c3ccccc23)NC(=O)[C@H](CCCNC(=N)N)NC(=O)[C@@H](Cc2ccccc2)NC(=O)[C@H](Cc2c[nH]cn2)NC1=O [lead-203 labelled] | C57 mouse, kidneys | intravenous, 0.056 MBq, 24 h | 4.48 ± 1.14 %ID/g |
| CN(C)c1ccc(-c2nc3ccc(OCCCCCN4CCN5CCN(CC4)CC(=O)[O][Al]([18F])[O]C(=O)C5)cc3s2)cc1 | ICR mouse, liver | intravenous, 10 min | 74.7 ± 5.23 %ID/g |

A few entries again:
| Compound | system | setting | tissue uptake |
| --- | --- | --- | --- |
| O=C([O-])CN1CCN(CC(=O)[O-])CCN(CC(=O)NCCc2ccc3c(c2)C2C=CCC2C(c2cc4c(cc2Br)OCO4)N3)CCN(CC(=O)[O-])CC1.[111In+3] (centres unmarked) | mouse, Hec50 endometrial tumour, kidneys | 0.5 h post injection | 2.55 ± 0.3 %ID/g |
